Measurements from different studies.
Protocols differ between the studies behind these lines.
Target: Protein deacetylase HDAC6 (HDAC6, Homo sapiens, UniProt Q9UBN7)
Mode: inhibitor
One construct used (Q9UBN7 1-1215): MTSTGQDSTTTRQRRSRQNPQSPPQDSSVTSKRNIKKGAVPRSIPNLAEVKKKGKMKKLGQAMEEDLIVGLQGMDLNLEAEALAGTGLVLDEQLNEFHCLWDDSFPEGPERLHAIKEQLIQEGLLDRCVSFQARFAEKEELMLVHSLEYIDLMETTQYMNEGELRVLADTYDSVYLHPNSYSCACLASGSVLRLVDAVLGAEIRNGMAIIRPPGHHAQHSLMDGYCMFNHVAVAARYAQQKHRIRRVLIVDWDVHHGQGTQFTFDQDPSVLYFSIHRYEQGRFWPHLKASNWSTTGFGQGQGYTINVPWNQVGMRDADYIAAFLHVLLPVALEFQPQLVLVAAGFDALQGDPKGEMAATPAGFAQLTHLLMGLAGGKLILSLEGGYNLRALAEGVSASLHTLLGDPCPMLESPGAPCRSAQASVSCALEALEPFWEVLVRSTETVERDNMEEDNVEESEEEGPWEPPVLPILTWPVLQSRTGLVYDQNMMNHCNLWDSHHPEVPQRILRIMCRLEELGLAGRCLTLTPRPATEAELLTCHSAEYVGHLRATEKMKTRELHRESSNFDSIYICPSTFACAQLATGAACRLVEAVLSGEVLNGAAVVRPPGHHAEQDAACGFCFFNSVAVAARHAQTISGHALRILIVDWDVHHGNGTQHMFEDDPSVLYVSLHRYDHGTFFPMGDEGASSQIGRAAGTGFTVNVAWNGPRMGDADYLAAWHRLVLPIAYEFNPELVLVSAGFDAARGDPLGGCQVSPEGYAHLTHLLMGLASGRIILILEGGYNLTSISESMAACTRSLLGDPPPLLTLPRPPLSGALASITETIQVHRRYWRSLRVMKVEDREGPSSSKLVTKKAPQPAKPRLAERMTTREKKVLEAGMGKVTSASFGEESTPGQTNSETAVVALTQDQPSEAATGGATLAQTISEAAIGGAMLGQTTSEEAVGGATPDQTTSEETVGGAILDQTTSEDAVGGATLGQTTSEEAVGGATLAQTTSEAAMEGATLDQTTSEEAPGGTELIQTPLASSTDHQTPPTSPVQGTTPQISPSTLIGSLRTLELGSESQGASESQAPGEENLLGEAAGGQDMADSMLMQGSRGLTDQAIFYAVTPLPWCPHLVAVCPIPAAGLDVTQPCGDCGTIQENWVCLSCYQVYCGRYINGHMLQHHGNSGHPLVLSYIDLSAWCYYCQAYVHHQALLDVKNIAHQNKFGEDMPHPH

Compound	read-out	technique	setting	IC50 [nM]
O=C(CCCCCCNc1ccc(C(=O)Nc2ccc(Cl)c(NC(=O)c3cccc(Cl)c3)c2)cn1)NO	enzyme activity	fluorescence	lysate	680
O=C(CCCCCCC(=O)Nc1ccc(-[c-]2cccc2)cc1)NO.[Fe+2].c1cc[cH-]c1	enzyme activity	fluorescence		0.09
O=c1[nH]sc2ccccc12	enzyme activity			3200
O=C(NO)c1ccc(CNC(=O)c2ccccc2)cc1	enzyme activity	fluorescence		25
O=C(CCCCCCC(=O)Nc1ccccc1-[c-]1cccc1)NO.[Fe+2].c1cc[cH-]c1	enzyme activity	fluorescence		0.3
O=C(/C=C/c1ccc(Cl)cc1Cl)NO	enzyme activity	fluorescence		710
CCC(=O)CCCCC[C@@H]1NC(=O)[C@@H](C)n2nncc2[C@@H](CC(C)C)NC(=O)[C@H](Cc2c[nH]c3ccccc23)NC1=O	enzyme activity			> 10000
CC(CCC(=O)NCc1ccc(C(=O)NCc2ccc(C(=O)NO)cc2)cc1)C1CCC2C3C(O)CC4CC(O)CCC4(C)C3CCC12C (stereo not shown)	enzyme activity	fluorescence		4.26
O=C(/C=C/c1ccccc1Cl)NO	enzyme activity	fluorescence		95
COCc1cc2c(cn1)CN(C(=O)Nc1nc(-c3ccc(F)cc3)ccc1N)C2	deacetylase activity	recombinant enzyme		> 30000
O=C(O)c1ccc(Cn2sc3ccccc3c2=O)cc1	enzyme activity			> 10000
CC(CCC(=O)NCC(=O)NCc1ccc(C(=O)NO)cc1)C1CCC2C3C(O)CC4CC(O)CCC4(C)C3CCC12C (stereo not shown)	enzyme activity	fluorescence		56.1
O=c1c2ccccc2[s+]([O-])n1-c1ccccc1 (stereo not shown)	enzyme activity			> 10000
N/C(=N\O)c1ccc2c(c1)N(Cc1ccc(C(=O)NO)cc1)c1ccccc1O2	enzyme activity			6
O=c1c2ccccc2sn1-c1ccccc1	enzyme activity			2890
COCCn1cc(COc2cccc(Cc3cnc(NC(=O)CSc4nc(C)cc(C)n4)s3)c2)nn1	enzyme activity	fluorescence		> 100000
Cc1cc(CNCCCCCC(=O)NO)ccc1OCc1cccc(-c2ccccc2)c1C				67
Cc1cc(C)nc(SCC(=O)Nc2ncc(Cc3cccc4ccccc34)s2)n1	enzyme activity	fluorescence		> 100000
N/C(=N\O)c1ccc2c(c1)Oc1ccccc1N2Cc1ccc(C(=O)NO)cc1	enzyme activity			3
Cc1cc(C)nc(SCC(=O)Nc2ncc(Cc3cccc(OCc4cn(-c5ccc(Cl)cc5)nn4)c3)s2)n1	enzyme activity	fluorescence		> 100000
Cn1cc2c(n1)CN(C(=O)Nc1nc(-c3ccc(F)cc3)ccc1N)C2	deacetylase activity	recombinant enzyme		> 30000
O=C(C=Cc1ccc2c(c1)C(=O)N(Cc1ccccc1)CC2)NO	enzyme activity			180

A few entries again:
Compound	read-out	technique	setting	IC50 [nM]
Cc1cc(CNCCCCCC(=O)NO)ccc1OCc1cccc(-c2ccccc2)c1C				67
CC(CCC(=O)NCC(=O)NCc1ccc(C(=O)NO)cc1)C1CCC2C3C(O)CC4CC(O)CCC4(C)C3CCC12C (stereo not shown)	enzyme activity	fluorescence		56.1
O=c1c2ccccc2sn1-c1ccccc1	enzyme activity			2890
